Values quoted from earlier work, collected from citations in different studies.
Lines come from different studies, so protocols differ. Numbers after ± are the reported error.
Mc1r: Melanocyte-stimulating hormone receptor (Mc1r, Mus musculus, UniProt Q01727)
CDK1: Cyclin-dependent kinase 1 (CDK1, Homo sapiens, UniProt P06493)

Amino acid sequences for entries named in this document (tags omitted). A change or cut given only in a name is not applied to a line headed by its entry. Residues count along the entry.
UniProt Q01727, whole entry: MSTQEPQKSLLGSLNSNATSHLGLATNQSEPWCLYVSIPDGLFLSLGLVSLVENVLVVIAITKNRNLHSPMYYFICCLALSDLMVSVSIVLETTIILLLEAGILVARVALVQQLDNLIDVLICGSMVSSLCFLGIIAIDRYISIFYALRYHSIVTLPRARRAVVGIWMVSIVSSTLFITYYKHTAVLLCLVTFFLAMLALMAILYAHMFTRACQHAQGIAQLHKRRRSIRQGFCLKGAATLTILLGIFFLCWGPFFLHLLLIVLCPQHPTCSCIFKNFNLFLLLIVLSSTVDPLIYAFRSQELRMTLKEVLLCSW
UniProt P06493, whole entry: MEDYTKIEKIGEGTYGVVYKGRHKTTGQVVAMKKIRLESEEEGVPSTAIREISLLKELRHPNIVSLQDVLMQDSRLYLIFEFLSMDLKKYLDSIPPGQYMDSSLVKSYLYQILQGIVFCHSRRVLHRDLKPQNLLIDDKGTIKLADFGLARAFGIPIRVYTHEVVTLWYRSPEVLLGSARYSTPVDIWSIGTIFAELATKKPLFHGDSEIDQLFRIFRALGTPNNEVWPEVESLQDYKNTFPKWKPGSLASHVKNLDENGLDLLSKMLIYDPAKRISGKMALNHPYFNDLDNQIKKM
UniProt P29466, whole entry, looked up: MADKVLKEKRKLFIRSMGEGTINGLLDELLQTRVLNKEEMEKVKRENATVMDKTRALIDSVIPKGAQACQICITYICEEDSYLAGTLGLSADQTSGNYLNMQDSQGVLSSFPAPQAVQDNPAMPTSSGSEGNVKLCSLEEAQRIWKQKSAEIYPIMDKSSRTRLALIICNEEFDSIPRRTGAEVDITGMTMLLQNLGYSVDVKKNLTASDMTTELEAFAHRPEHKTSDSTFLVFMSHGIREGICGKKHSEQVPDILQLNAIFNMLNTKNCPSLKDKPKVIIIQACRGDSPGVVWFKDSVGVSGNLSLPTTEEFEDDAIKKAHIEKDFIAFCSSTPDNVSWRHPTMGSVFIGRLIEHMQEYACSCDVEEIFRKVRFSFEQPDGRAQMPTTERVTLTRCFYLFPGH
UniProt Q00987, whole entry: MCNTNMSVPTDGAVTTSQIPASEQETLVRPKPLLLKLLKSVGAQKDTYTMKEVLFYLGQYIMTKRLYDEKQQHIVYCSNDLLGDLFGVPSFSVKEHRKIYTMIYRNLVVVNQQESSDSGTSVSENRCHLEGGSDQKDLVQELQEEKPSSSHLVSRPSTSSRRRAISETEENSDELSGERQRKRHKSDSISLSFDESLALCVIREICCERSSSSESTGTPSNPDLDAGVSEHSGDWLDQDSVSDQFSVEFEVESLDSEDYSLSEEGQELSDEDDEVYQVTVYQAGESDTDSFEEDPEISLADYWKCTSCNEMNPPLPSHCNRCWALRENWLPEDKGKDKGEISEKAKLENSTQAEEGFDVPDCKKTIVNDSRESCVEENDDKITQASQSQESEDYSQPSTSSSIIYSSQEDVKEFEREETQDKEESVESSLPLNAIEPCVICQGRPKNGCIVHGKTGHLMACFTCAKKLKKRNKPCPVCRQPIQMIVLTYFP
UniProt Q9BRQ8, whole entry: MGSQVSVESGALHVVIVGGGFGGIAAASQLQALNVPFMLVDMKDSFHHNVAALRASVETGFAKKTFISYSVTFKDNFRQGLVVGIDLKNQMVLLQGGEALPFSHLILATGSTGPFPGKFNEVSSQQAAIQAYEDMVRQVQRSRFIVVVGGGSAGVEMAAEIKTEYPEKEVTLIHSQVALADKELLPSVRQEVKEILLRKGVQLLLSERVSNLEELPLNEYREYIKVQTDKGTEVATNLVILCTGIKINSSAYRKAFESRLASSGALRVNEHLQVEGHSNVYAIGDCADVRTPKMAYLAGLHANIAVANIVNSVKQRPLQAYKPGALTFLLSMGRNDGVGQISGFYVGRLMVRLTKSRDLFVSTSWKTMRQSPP
UniProt Q00959, 23-1464 limits assumed: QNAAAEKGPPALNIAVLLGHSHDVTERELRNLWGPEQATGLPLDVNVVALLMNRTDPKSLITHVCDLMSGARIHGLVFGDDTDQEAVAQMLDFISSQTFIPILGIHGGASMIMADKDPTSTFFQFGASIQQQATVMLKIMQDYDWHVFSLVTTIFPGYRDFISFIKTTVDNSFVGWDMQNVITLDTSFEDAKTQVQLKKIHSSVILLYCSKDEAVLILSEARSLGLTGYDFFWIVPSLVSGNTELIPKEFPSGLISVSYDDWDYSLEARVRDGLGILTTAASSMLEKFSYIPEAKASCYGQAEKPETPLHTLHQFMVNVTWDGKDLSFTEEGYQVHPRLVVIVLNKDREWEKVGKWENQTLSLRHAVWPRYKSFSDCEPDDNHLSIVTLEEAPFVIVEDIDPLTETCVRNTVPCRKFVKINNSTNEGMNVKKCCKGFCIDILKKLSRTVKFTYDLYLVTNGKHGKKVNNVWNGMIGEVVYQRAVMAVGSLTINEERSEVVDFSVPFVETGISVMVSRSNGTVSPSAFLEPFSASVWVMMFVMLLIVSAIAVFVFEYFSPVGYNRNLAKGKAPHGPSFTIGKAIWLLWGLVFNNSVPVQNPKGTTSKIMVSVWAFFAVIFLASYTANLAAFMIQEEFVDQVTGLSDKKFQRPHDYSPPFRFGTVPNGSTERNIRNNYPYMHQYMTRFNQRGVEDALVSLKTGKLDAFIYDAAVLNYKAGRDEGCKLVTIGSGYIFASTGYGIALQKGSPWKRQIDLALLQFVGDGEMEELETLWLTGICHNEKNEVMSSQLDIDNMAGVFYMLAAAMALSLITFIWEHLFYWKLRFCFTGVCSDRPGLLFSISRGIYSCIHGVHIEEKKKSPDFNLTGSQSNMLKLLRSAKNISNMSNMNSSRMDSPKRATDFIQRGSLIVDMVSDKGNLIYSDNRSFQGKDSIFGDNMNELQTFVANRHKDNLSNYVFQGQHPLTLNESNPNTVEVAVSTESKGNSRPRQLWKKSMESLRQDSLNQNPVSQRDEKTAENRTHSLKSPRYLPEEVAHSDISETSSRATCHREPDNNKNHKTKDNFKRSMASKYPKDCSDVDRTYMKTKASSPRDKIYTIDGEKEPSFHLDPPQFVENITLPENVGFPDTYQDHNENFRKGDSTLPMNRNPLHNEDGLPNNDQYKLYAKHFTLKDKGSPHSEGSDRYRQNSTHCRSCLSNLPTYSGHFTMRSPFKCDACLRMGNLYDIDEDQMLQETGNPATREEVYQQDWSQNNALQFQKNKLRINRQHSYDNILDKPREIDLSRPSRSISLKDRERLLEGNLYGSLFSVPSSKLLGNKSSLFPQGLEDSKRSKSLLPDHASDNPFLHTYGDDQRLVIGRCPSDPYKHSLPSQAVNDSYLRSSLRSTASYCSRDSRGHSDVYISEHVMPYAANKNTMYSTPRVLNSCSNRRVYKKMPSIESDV
UniProt P20248, whole entry partner: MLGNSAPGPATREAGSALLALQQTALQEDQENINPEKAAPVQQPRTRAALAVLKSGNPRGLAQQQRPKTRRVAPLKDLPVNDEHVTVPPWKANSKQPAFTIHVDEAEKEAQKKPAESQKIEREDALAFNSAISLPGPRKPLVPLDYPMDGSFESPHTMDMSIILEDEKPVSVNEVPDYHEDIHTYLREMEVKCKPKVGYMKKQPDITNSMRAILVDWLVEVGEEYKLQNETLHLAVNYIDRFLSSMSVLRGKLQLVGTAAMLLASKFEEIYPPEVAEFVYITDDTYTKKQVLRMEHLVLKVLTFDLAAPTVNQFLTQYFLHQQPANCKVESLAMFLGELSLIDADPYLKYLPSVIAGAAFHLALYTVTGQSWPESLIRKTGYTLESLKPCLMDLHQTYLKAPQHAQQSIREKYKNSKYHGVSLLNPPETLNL

Structure (SMILES)	target or system	test	system	conditions	quantity	value
COc1cccc(CN2CCN(c3cc(N4CCCC4)nc(N4CCCC4)n3)CC2)c1	Caspase-1 (CASP1, Homo sapiens, UniProt P29466)	inhibitor	–	30 min	IC50	> 200 nM
Cc1nnc2c(NC(C)C)nc(-c3nc4cnc(N5CCOCC5)cc4n3Cc3ccc(F)cn3)cn12	Bromodomain-containing protein 4, BD1 (BRD4, Homo sapiens, UniProt O60885)	inhibitor	–	1	IC50	3 nM
CC(=O)N[C@@H](CCCCN)C(=O)N[C@H](C(=O)N[C@@H](Cc1ccccc1)C(=O)N[C@@H](C)C(=O)N[C@@H](CCC(=O)O)C(=O)N[C@@H](Cc1ccc(O)cc1)C(=O)N[C@@H](Cc1c[nH]c2ccccc12)C(=O)N[C@@H](C)CNC(=O)N[C@@H](C)CNC(=O)N[C@H](CNC(N)=O)C(C)C)[C@@H](C)O	E3 ubiquitin-protein ligase Mdm2, with p53 (MDM2, Homo sapiens, UniProt Q00987)	–	–	–	IC50	5.7 ± 0.2 nM
CCCC[C@H](NC(=O)CNC(=O)CNC(=O)c1ccc(NN)nc1)C(=O)N[C@H]1CC(=O)NCCCC[C@@H](C(N)=O)NC(=O)[C@H](Cc2c[nH]c3ccccc23)NC(=O)[C@H](CCCNC(=N)N)NC(=O)[C@@H](Cc2ccccc2)NC(=O)[C@H](Cc2c[nH]cn2)NC1=O	Mc1r	binding	B16/F1	–	IC50	0.6 ± 0.04 nM
COc1ccc(Nc2nc(N)[n+]([O-])c(OCC3CCCCC3)n2)cc1	CDK1	kinase activity, inhibitor	–	–	IC50	230 nM
Cc1cc(-c2c(C)noc2C)ccc1S(=O)(=O)CC1CCCC1	Bromodomain-containing protein 4, BD2 (BRD4, Homo sapiens, UniProt O60885)	inhibitor	–	2	IC50	500 nM
COc1ccc(N2CC(=O)C(c3nc(C)cs3)=C2N)c(OC)c1	AIFM2 (Homo sapiens, UniProt Q9BRQ8)	enzyme activity, resazurin reduction	–	–	IC50	83 nM
CSc1ccc(Nc2nc(N)[n+]([O-])c(OCC3CCCCC3)n2)cc1	CDK1	kinase activity, inhibitor	–	–	IC50	220 nM
CC(C)[C@H](NC(=O)[C@@H]1CCCN1C(=O)[C@H](CCCNC(=N)N)NC(=O)[C@H](CS)NC(=O)[C@H](Cc1c[nH]c2ccccc12)NC(=O)[C@H](CCCNC(=N)N)NC(=O)[C@@H](Cc1ccccc1)NC(=O)[C@H](Cc1cnc[nH]1)NC(=O)[C@H](CCC(=O)O)NC(=O)[C@H](CS)NC(=O)[C@H](CS)NC(=O)[C@H](CCCCN)NC(=O)[C@@H]1CC(=O)N[C@@H](CCCNC(=N)N)C(=O)N[C@@H](C(C)C)C(=O)N[C@@H](CC(=O)O)C(=O)N[C@H](Cc2ccc(O)cc2)C(=O)N1)C(N)=O	Mc1r	binding	B16/F1	–	IC50	1 nM
O=C(O)c1cc([C@H]2CCN[C@@H]2C(=O)O)ccc1F	AMPA receptor (rat)	binding, radioligand binding	rat synaptosomes	with: [3H]AMPA	IC50	> 100000 nM
O=C(O)c1cc([C@H]2CCN[C@@H]2C(=O)O)ccc1O	kainate receptor, rat	binding	rat synaptosomes	with: [3H]kainate	IC50	1400 nM
O=C1N=C(NCCc2ccccc2F)SC1=Cc1ccc2ncccc2c1	CDK1	kinase activity, inhibitor	–	–	IC50	120 nM
O=C(O)c1cc([C@H]2CCN[C@@H]2C(=O)O)ccc1Cl	Glutamate receptor ionotropic, NMDA 2A, with GluN1 (Grin2a, Rattus norvegicus, UniProt Q00959)	ion current, antagonist, two-electrode voltage clamp	–	GluN1/GluN2A	IC50	4700 nM
COc1cc2c(ccc3cc(O)c(OC)c(OC)c32)cc1O	CDK1	kinase activity, inhibitor	–	–	IC50	200 nM
O=C(O)c1cc([C@H]2CCN[C@@H]2C(=O)O)ccc1O	AMPA receptor (rat)	binding, radioligand binding	rat synaptosomes	with: [3H]AMPA	IC50	2000 nM
CNc1nc(C)c(-c2ccnc(Nc3ccc(N4CCN(C)CC4)cn3)n2)s1	CDK1	kinase activity, inhibitor	–	–	IC50	3030 nM
CCC(C)NC(=O)CSc1nnc(Nc2ccc(C(C)C)cc2)s1 (stereo not drawn)	–	–	PBS	–	half-life	> 6.67 h
CCC[C@@H]1CN[C@H](C(=O)O)[C@H]1c1cccc(C(=O)O)c1	kainate receptor (rat)	binding, radioligand binding	rat synaptosomes	with: [3H]kainate	IC50	22000 nM

Some of these lines once more:
Structure (SMILES)	target or system	test	system	conditions	quantity	value
COc1ccc(N2CC(=O)C(c3nc(C)cs3)=C2N)c(OC)c1	AIFM2 (Homo sapiens, UniProt Q9BRQ8)	enzyme activity, resazurin reduction	–	–	IC50	83 nM
O=C(O)c1cc([C@H]2CCN[C@@H]2C(=O)O)ccc1Cl	Glutamate receptor ionotropic, NMDA 2A, with GluN1 (Grin2a, Rattus norvegicus, UniProt Q00959)	ion current, antagonist, two-electrode voltage clamp	–	GluN1/GluN2A	IC50	4700 nM
